Assay results gathered from unrelated publications.
Each line is one published result; not all experiments were run side by side. Values joined by “and” are separate records of one study, mostly repeats; a detail may differ. Numbers after ± are the reported error.

For `Cc1cccc(Cn2ncc3c4cc(F)c(CN(C)C)cc4n(C)c3c2=O)n1`, plasma concentration read “not detected” (Dutch-belted rabbit, plasma; intravitreal, 1 µM vitreous, 7.00 days).
`CC(=O)N([O-])CCCCCNC(=O)CCC(=O)N([O-])CCCCCNC(=O)CCC(=O)N([O-])CCCCCN.[89Zr+4]` has a tracer uptake of 0.02 %ID/g (mouse, blood; 24 h).
For `O[C@@H]1[C@@H](O)[C@H](n2cc(-c3ccc(-c4nncnn4)cc3)nn2)O[C@H](C[18F])[C@H]1O`, “tumour to blood ratio” read 0.75 (PET imaging; BALB/c nude mouse, LS174T xenograft, tumour, heart as blood; intravenous, 1 h, added: CC49-TCO 72 h before; relative to: tumour over heart).
`CS(=O)(=O)c1cc(Cl)cc(-c2cc(Cl)c(Cl)cc2Cl)c1Cl`: “milk fat partition ratio” 231 (cow whole milk; 20 nM; relative to: milk fat over skim milk).
For `Cc1nn(-c2nc3c(F)cc(F)cc3s2)c(O)c1C(c1ccc(C(F)(F)F)cc1)c1c(C)nn(-c2nc3c(F)cc(F)cc3s2)c1O`, the Tlag was 0 h (ICR mouse, plasma; oral, 50 mg/kg).
`C=CC(=O)Nc1cc(Nc2nccc(-c3cn(C)c4ccccc34)n2)c(OC)cc1N(C)CCNC` has a remaining compound of 91.9% (human, plasma; 72 h, -80 °C, high QC level).
With `C[N+](C)(CCOCCOCCOCCNC(=S)Nc1ccc(C[C@H]2CN(CC(=O)[O-])CCN(CC(=O)[O-])CCN2CC(=O)[O-])cc1)C[c-]1cccc1.[64Cu+2].[Fe+2].c1cc[cH-]c1` the tumour uptake was 3.1 ± 0.6 %ID/g (pretargeted biodistribution; nude mouse, BxPC-3 xenograft; 8 h post-radioligand, 72 h lag time).
`C=C(NC(=O)c1csc(-c2nc3c(cc2O)-c2nc(cs2)C(=O)NC(C(C)O)C(=O)NC(=C(C)OC)c2nc(cs2)C(=O)NC2c4nc(cs4)C(=O)NC(COC(=O)c4c5c6c(cccc6n4O)COC(=O)C(OC4CC(C)(O)C(N(C)C)C(C)O4)C2OC5)c2nc-3cs2)n1)C(N)=O` (stereo not drawn) has a clearance of 2.04 mL/min/kg (cynomolgus monkey, both sexes, plasma; intravenous infusion, 1 mg/kg single dose).
With `COC1C=COC2(C)Oc3c(C)c(O)c4c(c3C2=O)C2=NC3(CCN(CC(C)C)CC3)NC2=C(NC(=O)C(C)=CC=CC(C)C(O)C(C)C(O)C(C)C(OC(=O)Nc2cccnn2)C1C)C4=O` (stereo not drawn) the oral bioavailability was 44% (CD-1 mouse, female, plasma; oral, 10 mg/kg).
Under “cysteine adduct formation”, `CC(C)(F)CC(NC(c1ccc(-c2ccc(S(C)(=O)=O)cc2)cc1)C(F)(F)F)C(=O)NCC#CBr` (stereo not drawn) is recorded as under 1% (MES buffer; 100 µM, 23 h, pH 5.5, 37 °C, added: cysteine 10 mM).
For `CN1CCC[C@]1(C)/C=C/S(=O)(=O)NC(=O)Nc1c2c(cc3c1C(O)CC3)CCC2` (stereo partly drawn), “Tmax at first steady-state dose” read 2 h (human, plasma; oral, 100 mg twice daily of parent drug, day 14, metabolite of dosed drug).
`CCCC[C@H](OC(C)=O)c1ccccc1C(=O)O` gave a Vss of 1.73 ± 0.356 L/kg (Sprague-Dawley rats, both sexes, whole blood; intravenous, 20 mg/kg single dose).
The adverse events of `COCC1CN(C2CCN(c3cc(OC)c(Nc4ncc(Br)c(Nc5ccc6c(c5P(C)(C)=O)OCCO6)n4)cc3C)CC2)C1` is reported as 0% (first-in-human trial; human; oral, 60 mg once daily; treatment-related leading to permanent discontinuation).
With `CCCC[C@H](NC(=O)CNC(=O)CNC(=O)[C@H](CCCCNC(=O)[C@H](CCN)NC(=O)C(C)c1ccc(CC(C)C)cc1)NC(=O)CN1CCN(CC(=O)O)CCN(CC(=O)O)CCN(CC(=O)O)CC1)C(=O)N[C@H]1CC(=O)NCCCC[C@@H](C(N)=O)NC(=O)[C@H](Cc2c[nH]c3ccccc23)NC(=O)[C@H](CCCNC(=N)N)NC(=O)[C@@H](Cc2ccccc2)NC(=O)[C@H](Cc2c[nH]cn2)NC1=O` (stereo partly drawn) [lutetium-177 labelled] the tumour-to-tissue ratio was 68.6 (C57 mice, tumour; 2 h; relative to: muscle).
`O=C(Nc1cnccc1-c1ccc([18F])cc1)c1ccnc(NC(=O)C2CC2)c1` gave an SUV of 0.39 (FVB/NJ mouse, both sexes, brain; intravenous, 40 min, added: tariquidar 15 mg/kg iv).
`CC(C)OCCOCc1ccc(OCC(O)CN(N=O)C(C)C)cc1` (stereo not drawn) gave a fold change of 0.9 (duplex sequencing, refers to: mutation frequency; NMRI mouse, bone marrow; oral, 9.95 mg/kg/day, 4 weeks; relative to: vehicle).
With `CN1CCN(C(=S)N/N=C/c2ccccc2O)CC1` the Vss was 37.6 ± 16.7 L/kg (plasma; intravenous, 30 mg/kg).
`CN1CCCNC(=O)c2cccc(c2)C(=O)NCCCN(C)CCCNc2cccc3c2C(=O)c2cccc(c2C3=O)NCCC1` has an AST of 58 IU/L and 51 IU/L and 50 IU/L (mouse, serum; dose not given).

A few entries again:
The adverse events of `COCC1CN(C2CCN(c3cc(OC)c(Nc4ncc(Br)c(Nc5ccc6c(c5P(C)(C)=O)OCCO6)n4)cc3C)CC2)C1` is reported as 0% (first-in-human trial; human; oral, 60 mg once daily; treatment-related leading to permanent discontinuation).
